{"data": "Published values pooled from the literature", "note": "Compare with care: the assays were run in different laboratories."}
{"SMILES": "COc1ccc(/C=C/c2ccc(-c3ccc(C)cn3)nc2)cc1", "system": "acetonitrile", "conditions": "concentration not given, added: Zn(ClO4)2, saturating", "how to read": "relative to: zinc-free ligand", "endpoint": "emission shift on zinc binding", "value": "4440 cm⁻¹"}
{"SMILES": "CCCn1c(=O)c2[nH]c(-c3ccc(OCC(=O)NCCNC(=O)CCCCCNC(=O)COc4ccc(/C=C/C5=[N+]6C(=Cc7ccc(-c8cccs8)n7[B-]6(F)F)C=C5)cc4)cc3)nc2n(CCC)c1=O", "conditions": "1 µM", "how to read": "relative to: HBS over methanol", "endpoint": "emission intensity ratio", "value": 0.07}
{"SMILES": "COc1cc(OC)cc(C2=C3C(C)=C(I)C(/C=C/c4c[nH]c5ccccc45)=[N+]3[B-](F)(F)n3c(/C=C/c4c[nH]c5ccccc45)c(I)c(C)c32)c1", "system": "THF", "endpoint": "emission maximum", "value": "748 nm"}
{"SMILES": "CN(C)c1cccc2c(S(=O)(=O)NCCCCC(=O)NO)cccc12", "test": "fluorescence", "endpoint": "emission wavelength", "value": "500 nm"}
{"SMILES": "NCCC(=O)N1Cc2ccccc2-c2c(nnn2-c2nc3c(N)ncnc3n2C2OC(CO)C(O)C2O)-c2ccccc21 (mixture of isomers)", "system": "DMSO", "endpoint": "emission maximum", "value": "429 nm"}
{"SMILES": "COc1cc(OC)cc(C2=C3C(C)=C(I)C(C)=[N+]3[B-](F)(F)n3c(/C=C/c4c[nH]c5ccc([N+](=O)[O-])cc45)c(I)c(C)c32)c1", "system": "THF", "endpoint": "emission maximum", "value": "635 nm"}
{"SMILES": "CN(C)c1cccc2c(S(=O)(=O)NCCCCCCC(=O)NO)cccc12", "test": "fluorescence", "endpoint": "emission wavelength", "value": "500 nm"}
{"SMILES": "Nc1ncnc2c1nc(-n1nnc3c1CCC1C(CO)C1CC3)n2C1OC(CO)C(O)C1O (mixture of isomers)", "system": "DMSO", "endpoint": "emission maximum", "value": "376 nm"}
{"SMILES": "CCOC(=O)c1[nH]c(C)c(/C=C/C2=[N+]3C(=C(c4cc(OC)cc(OC)c4)c4c(C)c(I)c(/C=C/c5c(C)[nH]c(C(=O)OCC)c5C)n4[B-]3(F)F)C(C)=C2I)c1C", "system": "THF", "endpoint": "emission maximum", "value": "713 nm"}
{"SMILES": "COc1ccc2cc(-c3ccc(-c4ccc(C)cn4)nc3)oc2c1", "system": "acetonitrile", "conditions": "concentration not given, added: Zn(ClO4)2, saturating", "how to read": "relative to: zinc-free ligand", "endpoint": "emission shift on zinc binding", "value": "4400 cm⁻¹"}
{"SMILES": "COc1cc(OC)cc(C2=C3C(C)=C(I)C(C)=[N+]3[B-](F)(F)n3c(/C=C/c4c[nH]c5ccccc45)c(I)c(C)c32)c1", "system": "dichloromethane", "endpoint": "emission maximum", "value": "661 nm"}
{"SMILES": "CCCn1c(=O)c2[nH]c(-c3ccc(OCC(=O)NCCNS(=O)(=O)c4cccc5c(N(C)C)cccc45)cc3)nc2n(CCC)c1=O", "conditions": "50 µM", "how to read": "relative to: HBS over methanol", "endpoint": "emission intensity ratio", "value": 0.26}
{"note": "A few entries again:"}
{"SMILES": "NCCC(=O)N1Cc2ccccc2-c2c(nnn2-c2nc3c(N)ncnc3n2C2OC(CO)C(O)C2O)-c2ccccc21 (mixture of isomers)", "system": "DMSO", "endpoint": "emission maximum", "value": "429 nm"}
